Measurements pooled from the literature.
A part holds a random share of what one study measured.

Study 1 — method: universal PBM; form: double-stranded DNA, one strand shown; sample: in vitro; concentration: not given; reading: higher = stronger binding
Target: Sal-like protein 4, full length isoform B (SALL4, Homo sapiens, UniProt Q9UJQ4-2, residues 1-616)
Notes: 8-mer, flanks averaged, mean of replicates
Residues (chain): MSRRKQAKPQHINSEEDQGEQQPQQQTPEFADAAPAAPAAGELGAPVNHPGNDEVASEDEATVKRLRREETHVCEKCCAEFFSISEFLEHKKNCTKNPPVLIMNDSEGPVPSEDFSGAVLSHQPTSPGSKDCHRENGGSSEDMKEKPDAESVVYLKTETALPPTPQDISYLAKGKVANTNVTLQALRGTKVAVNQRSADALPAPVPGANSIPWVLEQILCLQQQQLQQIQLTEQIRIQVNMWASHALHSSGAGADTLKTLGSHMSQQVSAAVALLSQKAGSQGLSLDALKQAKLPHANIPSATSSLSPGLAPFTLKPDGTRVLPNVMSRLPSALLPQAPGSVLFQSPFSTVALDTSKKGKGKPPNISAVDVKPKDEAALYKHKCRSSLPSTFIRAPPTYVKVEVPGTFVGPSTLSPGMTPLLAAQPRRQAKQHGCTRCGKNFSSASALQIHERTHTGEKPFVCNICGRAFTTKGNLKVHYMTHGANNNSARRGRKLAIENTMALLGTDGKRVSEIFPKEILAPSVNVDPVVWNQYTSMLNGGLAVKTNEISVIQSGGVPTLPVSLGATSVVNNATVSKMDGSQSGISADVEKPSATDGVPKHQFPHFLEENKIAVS
| Oligonucleotide | E-score |
| --- | --- |
| ATACTTCC | 0.0977 |
| CTCGTCGC | -0.246 |
| AGGAACCC | -0.266 |
| GAGTAAAA | 0.207 |
| ACCGACGA | -0.163 |
| CGAAAGCC | -0.258 |
| GAGTGTGC | 0.0862 |
| CGATAGTA | 0.0207 |
| ATTATGAG | 0.341 |
| ATTGTATG | 0.277 |
| TGCGGACA | -0.112 |
| CAAAGTTG | 0.0307 |
| AACCGGCG | -0.355 |
| ACACCCCA | -0.1 |
| GGCAGCCA | -0.158 |
| ACGAGGTC | -0.0904 |
| ATCGCATC | -0.144 |
| GTGTGAAC | -0.0439 |
| GTAGCCTA | 0.11 |
| CGCTCACC | -0.319 |
| ATTCTTAA | 0.152 |
| CTTTCTGA | 0.159 |

Study 2 — method: protein binding microarray; form: double-stranded DNA, one strand shown; sample: in vitro; concentration: not given; reference: not given; reading: higher = stronger binding
Target: Histone acetyltransferase KAT6A, both winged helices, GST fusion (KAT6A, Homo sapiens, UniProt Q92794, residues 1-181)
Notes: 8-mer, flanks averaged, mean of 2 arrays, mostly near background
Residues (chain): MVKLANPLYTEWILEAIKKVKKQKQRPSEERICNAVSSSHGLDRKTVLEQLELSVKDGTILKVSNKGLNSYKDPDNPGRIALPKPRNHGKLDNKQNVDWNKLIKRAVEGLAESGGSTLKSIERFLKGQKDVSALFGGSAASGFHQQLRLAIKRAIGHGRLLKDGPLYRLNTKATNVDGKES
| Oligonucleotide | E-score |
| --- | --- |
| GCTACATA | -0.0547 |
| AGCCAGCA | -0.303 |
| ATTTGATC | -0.0622 |
| AACATTTA | 0.0731 |
| GAGGCAGC | -0.0614 |
| CGATGCCA | -0.147 |
| GGCTACAA | -0.0168 |
| AGCAGTCA | -0.0836 |
| AATGCATG | -0.106 |
| ATATGAAC | -0.0641 |
| GAAGTGGA | 0.018 |
| GAAACCGA | 0.0472 |
| ATATAGCC | -0.105 |
| CACCCCTA | -0.228 |
| CTCAGGCC | -0.0321 |
| AGTCGTGC | -0.0801 |
| CTGGTGAC | -0.114 |
| CGTGTTCA | 0.198 |
| ACCACATG | -0.0586 |
| AGTTACAG | -0.138 |
| GGTGACGA | -0.0571 |

Study 3 — method: EMSA with sequencing; form: double-stranded DNA, one strand shown; sample: in vitro; concentration: 10 and 20 nM; reference: negative control set to 0; reading: higher = stronger binding
Target: Hepatocyte nuclear factor 3-alpha (Foxa1, Mus musculus, UniProt P35582, residues 1-468, full length assumed)
Chain of UniProt P35582 (whole entry, looked up): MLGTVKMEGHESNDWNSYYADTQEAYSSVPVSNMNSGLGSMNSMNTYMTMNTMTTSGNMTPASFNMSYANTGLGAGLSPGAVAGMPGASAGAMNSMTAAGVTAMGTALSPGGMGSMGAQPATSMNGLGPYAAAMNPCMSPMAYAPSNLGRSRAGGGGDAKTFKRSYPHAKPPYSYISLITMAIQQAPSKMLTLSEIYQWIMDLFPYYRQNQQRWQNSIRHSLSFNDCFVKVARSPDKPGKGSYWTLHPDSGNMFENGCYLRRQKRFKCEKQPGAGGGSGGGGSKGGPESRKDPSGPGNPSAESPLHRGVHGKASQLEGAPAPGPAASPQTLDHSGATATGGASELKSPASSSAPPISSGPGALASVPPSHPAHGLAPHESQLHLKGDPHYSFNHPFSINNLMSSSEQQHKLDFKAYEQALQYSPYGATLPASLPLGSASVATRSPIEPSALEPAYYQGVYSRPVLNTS
Notes: whole designed probe, mean of two concentrations, ends assumed
Constant ends, left off below: GTGAGCGGTGCCCATTGATGGGGAAC … TTTCACTGGGATCGTGGGGAC
| Oligonucleotide | normalised bound fraction [ratio] |
| --- | --- |
| ATCTTCCCCCTCTTCCTTGCCCCACCAGCTCACCTTCCCGGGTTATTTGCAGATAGGAAAATAAATAAAGCCGGCATTCGTTAACCCTCTTCTGGCGCAAACTGCTGTTTGCTCTGGATGAATCATGGTCCTTTGGCGAGGCGTGGCTCCGGGAGAGCAAAGCACCGTGTCAGGGCCATGATCCGGGGTGGCC | 0.344 |
| TCGGCCAGCCTGGCTTCTGCGCCCCGCCAGGAGGTCGCGGAGCGGAGCGCGGCCAGGAAGTGAGCTGAGAGTGACAGCTCCCCCCACGCGAGAATAAACAAACATCCACACACTGGCTCTTCTTATGACTCATTCTCTTTCGGGAGGAGGGGAGAAAGGAGCGGGAGGGCGGGCGGGCAGGGGAGAGGCAGGC | 0.373 |
| ATGTAACCATATGGTTCAAACCTGCGGGTCATATTTTATACACAAATGACTATGACAGGCAGTATTTTTGTGCTGACAAGTTGTATTTCATCCATGTTTACTTAGAATTCCATGCTATCATTAAAAGCTGAACAATAGAACTTTATCTTATTTTCACGCAAAAATTTCACTGAGTGTCCCTCTTATTAAAAAA | 0.27 |
| TTGAGTTGTGGGTACCATATACCCGTGTAAGTCTACATTTAACACTGAACCCTTTGTGTTGAGTACTCTGCATACAGTGTCATCATACCTTGAGTATTTACATTTAGTCATCATGTTTTCAAATAGTCCCGCCCTGCCCCTTCCCAGGACTGCAGTGATACTTACGTTAGAGCACTTGATGTTATCCCACAGG | 0.271 |
| TCTGGAAATTTTCTCTTACTTAACAGTCATTTTCTAAATATAATGGAATGTCATCTTTAGTCTATATCCAGGATCCTGGAATCCAAGTAATTCATGTTTACTTATTTTGTAGCTTAGCAGAAAACTGAATCTAGCTTAGTGTTCTGAATAAATAATAATTCTACAACCTAGAGAATTACTTGGCAGCACTATG | 0.379 |
| AAGAAAAATTATGGCAAAAAAAAAAAGAAAAAAAAAGAAAAAAAAAGATTTCACCTTTCTTTTCCTTCCATGAGACAAGGGGCTAACAACTGTGTCATCTTGAAGTTCTCCACTAGAGGGAACTAATTCCACGTCCTCCAATCGTGAGCTTCATCAGGATGTGTCTGAGAACAGTGCTCTCTCCATGTTTAGA | -0.0743 |
| TTTTTTCTGTACAGGGAAAAATAGTGAATATTTCAAAAATGTGAATCAAAGAGTCTCTGTGGCAACTACTCATTGATGCATATCAGACAATATGCAAACAAATGAGTGTGTCTGTGTTCCAATAAAACTGTATTTACAAAAGCAGAAGGCCACCCATGTGCCAATGTCCAAAGTTTCTCAACCAACCCCTGGT | 0.389 |
| ATCTTCCCCCTCTTCCTTGCCCCACCAGCTCACCTTCCCGGGTTATTTGCACAAAGGAAAATAAATAAAGCCGGCATTCGTTAACGCAGTTCACGCGCATACTGCTGTTTGCTCTGCATGAATCATGGTCCTTACGCGAGGCGTGGCTCCGGGAGAGCAAAGCACCGTGTCAGGCGCATGATCCGGGGTGGCC | 0.379 |

Study 4 — method: protein-binding microarray; form: double-stranded DNA, one strand shown; sample: in vitro; concentration: 0.8 µM; notes: whole 60-bp probe, no competitor; reading: higher = stronger binding; constant ends, left off below: … GTCTTGATTCGCTTGACGCTGCTG
Target: Centromere-binding protein 1, full length, N-terminal tag (CBF1, Saccharomyces cerevisiae, UniProt P17106, residues 1-351)
Chain of UniProt P17106 (whole entry, looked up): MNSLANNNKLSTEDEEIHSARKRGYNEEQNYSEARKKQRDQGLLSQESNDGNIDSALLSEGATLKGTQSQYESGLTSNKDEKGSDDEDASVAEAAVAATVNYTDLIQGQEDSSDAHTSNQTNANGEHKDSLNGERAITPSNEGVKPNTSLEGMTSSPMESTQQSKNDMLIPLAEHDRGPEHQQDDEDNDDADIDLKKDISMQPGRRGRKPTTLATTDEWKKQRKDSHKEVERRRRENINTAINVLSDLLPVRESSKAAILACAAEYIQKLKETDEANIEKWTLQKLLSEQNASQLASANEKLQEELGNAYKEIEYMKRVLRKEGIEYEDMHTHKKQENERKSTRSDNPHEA
| Oligonucleotide | fluorescence intensity [a.u.] |
| --- | --- |
| CTAAATATATCAAATAACGTGAAATAATGTACCTTC | 633 |
| CTATTTTTTCAAAGGCACGCGTGTCCTTTTTTGTTC | 807 |
| CTAAGTTCACGTGATATTATTAATAATATTTTATTC | 16300 |
| GAATTTTTATATACACGTGTGGCTCAAGCAAACTAG | 4650 |
| GAACGTGAATGTATACACGTGACCCTAATGCTCTAG | 15700 |
| GAATGTTTTGTTGAAAATCACATGAGTGGACGGTAG | 1310 |
| CTAACACATGCGCTGCACGTGCGGCCGGAACAATTC | 7090 |
| CTATTGTTTCAACCTCATGACCCCTGTCTTGACTTC | 666 |
| CTAAAAGGACCACATCACCAGACTTATCTCTGGTTC | 501 |
| TGTACGAAGCTATATCACGCGGTTATAGTAGTTAGG | 963 |
| GAACGAATTGTATATCACGAGAGGTGATGGCACTAG | 1390 |
| CTAGGCGCTGGCGCTCACCCCACAAGAGCGTCCTTC | 470 |
| CTACAAGTTCCGGGTAGTCACATGGAAACAATGTTC | 2880 |
| TGTACGAAGCTATGTCACCCCGGTATAGTAGTTAGG | 504 |
| GAAACGCATAATTCTAACGTGACAAATGTTGTTTAG | 803 |
| CTAGAAATGCAACAACTCATGATGTAATAGGATTTC | 521 |
| CTAACGCGTTCGCTTCACGTGATGTTCCTTTTCTTC | 10800 |
| CTATTACTCCAAGGGTTCGTGACGTCGAATTCCTTC | 999 |
| GAACTAGAGAGCGAATACGTGCTCTGTAATTGTTAG | 562 |
| GAAGAGAATACGTATCATCATATGATTTCCCCCTAG | 534 |
| GAATCCTTGGGAGATCACGGATGCATCGAGAAGTAG | 656 |
| CTAAGAATAGACATCCTGGTGACGCATATCGACTTC | 534 |
| CTACCTTTTACAGGTGACGACTCTCCTTTTCCGTTC | 593 |
| GAACTCGATCATACCAACGTCACGTGTAAAGCTTAG | 12900 |
| CTACAACGTATTTCTTACGTGGTGAAAATAAGATTC | 1080 |
